Measurements pooled from the literature.
Each line is one published result; not all experiments were run side by side. Several values in a cell are separate wells, animals, samples, runs or records. ± marks the error that the study gave.
OfChi-h: Chitinase (OfChi-h, Ostrinia furnacalis, UniProt Q4AE59)
glpG: Rhomboid protease GlpG (glpG, Escherichia coli, UniProt P09391)
MAOB: Amine oxidase [flavin-containing] B (MAOB, Homo sapiens, UniProt P27338)
Chain of UniProt P27338 (whole entry, looked up): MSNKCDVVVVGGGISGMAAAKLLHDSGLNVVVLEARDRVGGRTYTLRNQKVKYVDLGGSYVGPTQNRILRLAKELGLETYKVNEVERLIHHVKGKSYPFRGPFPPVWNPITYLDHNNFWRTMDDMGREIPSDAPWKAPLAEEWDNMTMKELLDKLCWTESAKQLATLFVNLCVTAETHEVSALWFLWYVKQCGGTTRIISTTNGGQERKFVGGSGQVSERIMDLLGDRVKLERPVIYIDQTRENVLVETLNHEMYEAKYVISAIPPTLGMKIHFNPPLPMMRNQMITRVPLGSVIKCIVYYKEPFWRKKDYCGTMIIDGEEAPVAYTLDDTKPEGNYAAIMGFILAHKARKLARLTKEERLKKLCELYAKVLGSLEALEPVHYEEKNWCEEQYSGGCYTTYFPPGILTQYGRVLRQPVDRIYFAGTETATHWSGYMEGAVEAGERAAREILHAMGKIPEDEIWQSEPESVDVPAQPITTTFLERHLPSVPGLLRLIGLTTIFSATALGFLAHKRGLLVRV
NTSR1: Neurotensin receptor type 1 (NTSR1, Homo sapiens, UniProt P30989)
Chain of UniProt P30989 (whole entry, looked up): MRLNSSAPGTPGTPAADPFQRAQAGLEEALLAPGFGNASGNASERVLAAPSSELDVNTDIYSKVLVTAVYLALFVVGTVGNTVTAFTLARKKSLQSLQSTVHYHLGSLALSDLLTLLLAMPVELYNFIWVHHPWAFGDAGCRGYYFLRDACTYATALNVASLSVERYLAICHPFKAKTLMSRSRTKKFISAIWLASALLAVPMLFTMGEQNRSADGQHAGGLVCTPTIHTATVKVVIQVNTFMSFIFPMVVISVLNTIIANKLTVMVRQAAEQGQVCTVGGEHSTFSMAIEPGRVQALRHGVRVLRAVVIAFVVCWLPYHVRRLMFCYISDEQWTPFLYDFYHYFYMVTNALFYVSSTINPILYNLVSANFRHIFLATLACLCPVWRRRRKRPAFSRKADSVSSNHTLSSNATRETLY
ppa: Inorganic pyrophosphatase (ppa, Escherichia coli, UniProt P0A7A9)
Chain of UniProt P0A7A9 (whole entry, looked up): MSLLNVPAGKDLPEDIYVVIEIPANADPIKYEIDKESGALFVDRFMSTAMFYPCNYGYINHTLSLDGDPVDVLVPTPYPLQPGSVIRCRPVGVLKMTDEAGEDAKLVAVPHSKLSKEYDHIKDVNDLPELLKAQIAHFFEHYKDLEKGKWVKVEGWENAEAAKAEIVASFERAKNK
Gria1: Glutamate receptor 1 (Gria1, Rattus norvegicus, UniProt P19490)
Uncharacterized protein: Uncharacterized protein (Trypanosoma brucei brucei, UniProt Q386Q8)
JAK1: Tyrosine-protein kinase JAK1 (JAK1, Homo sapiens, UniProt P23458)
Chain of UniProt P23458 (whole entry, looked up): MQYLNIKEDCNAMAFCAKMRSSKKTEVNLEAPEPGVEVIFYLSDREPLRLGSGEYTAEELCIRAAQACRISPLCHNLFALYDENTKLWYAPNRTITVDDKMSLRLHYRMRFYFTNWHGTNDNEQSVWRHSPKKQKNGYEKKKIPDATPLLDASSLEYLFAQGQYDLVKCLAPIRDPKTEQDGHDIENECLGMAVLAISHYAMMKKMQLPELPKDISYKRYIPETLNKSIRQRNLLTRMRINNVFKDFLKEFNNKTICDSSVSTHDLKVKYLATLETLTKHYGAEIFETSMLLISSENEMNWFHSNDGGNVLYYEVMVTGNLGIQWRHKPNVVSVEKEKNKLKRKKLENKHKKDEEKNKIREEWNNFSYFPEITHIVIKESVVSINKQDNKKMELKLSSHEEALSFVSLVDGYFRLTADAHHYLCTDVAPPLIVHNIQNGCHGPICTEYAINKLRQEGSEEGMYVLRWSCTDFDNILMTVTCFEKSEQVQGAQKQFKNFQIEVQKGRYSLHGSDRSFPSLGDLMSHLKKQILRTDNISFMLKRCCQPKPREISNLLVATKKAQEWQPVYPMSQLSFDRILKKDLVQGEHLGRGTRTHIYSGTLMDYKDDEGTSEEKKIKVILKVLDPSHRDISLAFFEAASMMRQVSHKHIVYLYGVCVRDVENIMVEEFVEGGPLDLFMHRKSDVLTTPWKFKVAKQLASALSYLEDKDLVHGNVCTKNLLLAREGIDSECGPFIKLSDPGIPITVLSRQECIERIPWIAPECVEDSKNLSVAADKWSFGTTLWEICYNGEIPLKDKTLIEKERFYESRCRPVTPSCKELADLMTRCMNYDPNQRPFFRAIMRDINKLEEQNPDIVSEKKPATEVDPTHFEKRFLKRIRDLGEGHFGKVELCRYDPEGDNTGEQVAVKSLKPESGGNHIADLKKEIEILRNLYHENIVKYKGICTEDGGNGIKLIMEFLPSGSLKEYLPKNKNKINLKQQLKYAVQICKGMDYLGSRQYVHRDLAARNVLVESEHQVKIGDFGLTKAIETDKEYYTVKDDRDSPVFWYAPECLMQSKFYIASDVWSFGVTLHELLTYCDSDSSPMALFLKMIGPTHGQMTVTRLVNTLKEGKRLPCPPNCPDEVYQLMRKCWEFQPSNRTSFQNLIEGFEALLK
Proteasome component C5/PSMB5: Proteasome component C5/PSMB5 (Homo sapiens, UniProt P20618+P28074)
Chain of UniProt P28074 (whole entry, looked up): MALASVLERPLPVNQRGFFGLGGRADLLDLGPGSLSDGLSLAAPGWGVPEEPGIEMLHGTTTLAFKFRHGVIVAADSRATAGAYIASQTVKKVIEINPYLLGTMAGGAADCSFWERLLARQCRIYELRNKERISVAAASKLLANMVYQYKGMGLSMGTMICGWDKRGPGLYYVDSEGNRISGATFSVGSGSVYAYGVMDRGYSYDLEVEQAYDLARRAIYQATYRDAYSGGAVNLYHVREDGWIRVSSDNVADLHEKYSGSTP
TDP1: Tyrosyl-DNA phosphodiesterase 1 (TDP1, Homo sapiens, UniProt Q9NUW8)
Chain of UniProt Q9NUW8 (whole entry, looked up): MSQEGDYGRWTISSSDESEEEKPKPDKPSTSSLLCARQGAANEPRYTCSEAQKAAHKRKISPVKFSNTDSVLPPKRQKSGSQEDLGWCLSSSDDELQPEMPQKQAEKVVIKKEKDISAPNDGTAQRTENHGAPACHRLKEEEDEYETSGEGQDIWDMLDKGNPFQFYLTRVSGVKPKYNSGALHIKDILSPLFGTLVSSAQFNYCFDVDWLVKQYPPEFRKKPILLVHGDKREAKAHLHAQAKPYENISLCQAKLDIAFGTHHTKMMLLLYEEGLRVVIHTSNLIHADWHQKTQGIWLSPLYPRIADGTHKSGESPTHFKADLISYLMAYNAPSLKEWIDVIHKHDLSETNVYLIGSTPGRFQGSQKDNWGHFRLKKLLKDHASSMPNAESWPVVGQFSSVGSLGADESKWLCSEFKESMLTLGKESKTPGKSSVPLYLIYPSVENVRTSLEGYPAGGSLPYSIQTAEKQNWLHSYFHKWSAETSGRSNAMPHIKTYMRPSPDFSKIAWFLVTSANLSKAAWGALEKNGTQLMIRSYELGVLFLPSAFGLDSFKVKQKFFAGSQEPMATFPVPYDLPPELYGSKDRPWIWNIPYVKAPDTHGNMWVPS
ADRB2: Beta-2 adrenergic receptor (ADRB2, Homo sapiens, UniProt P07550)
Chain of UniProt P07550 (whole entry, looked up): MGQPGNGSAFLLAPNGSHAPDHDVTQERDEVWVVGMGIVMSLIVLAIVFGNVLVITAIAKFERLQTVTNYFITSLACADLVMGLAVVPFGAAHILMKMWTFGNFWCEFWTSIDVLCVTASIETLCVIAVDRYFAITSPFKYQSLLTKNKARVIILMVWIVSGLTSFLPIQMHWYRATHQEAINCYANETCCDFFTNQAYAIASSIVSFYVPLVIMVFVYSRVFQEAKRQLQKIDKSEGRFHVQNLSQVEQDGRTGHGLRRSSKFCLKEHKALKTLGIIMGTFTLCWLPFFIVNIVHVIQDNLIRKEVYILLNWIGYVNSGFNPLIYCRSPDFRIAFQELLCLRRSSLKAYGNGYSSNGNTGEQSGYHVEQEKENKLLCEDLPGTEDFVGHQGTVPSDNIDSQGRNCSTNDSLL
NNMT: Nicotinamide N-methyltransferase (NNMT, Homo sapiens, UniProt P40261)
Chain of UniProt P40261 (whole entry, looked up): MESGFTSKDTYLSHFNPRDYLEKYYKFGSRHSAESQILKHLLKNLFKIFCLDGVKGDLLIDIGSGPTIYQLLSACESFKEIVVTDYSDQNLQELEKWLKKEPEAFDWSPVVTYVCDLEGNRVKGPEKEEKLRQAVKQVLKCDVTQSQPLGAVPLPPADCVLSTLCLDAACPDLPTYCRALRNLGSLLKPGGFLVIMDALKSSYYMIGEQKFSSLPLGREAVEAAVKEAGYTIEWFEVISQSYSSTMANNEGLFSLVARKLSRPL
PIK3CD: Phosphatidylinositol 4,5-bisphosphate 3-kinase catalytic subunit delta isoform (PIK3CD, Homo sapiens, UniProt O00329)
Chain of UniProt O00329 (whole entry, looked up): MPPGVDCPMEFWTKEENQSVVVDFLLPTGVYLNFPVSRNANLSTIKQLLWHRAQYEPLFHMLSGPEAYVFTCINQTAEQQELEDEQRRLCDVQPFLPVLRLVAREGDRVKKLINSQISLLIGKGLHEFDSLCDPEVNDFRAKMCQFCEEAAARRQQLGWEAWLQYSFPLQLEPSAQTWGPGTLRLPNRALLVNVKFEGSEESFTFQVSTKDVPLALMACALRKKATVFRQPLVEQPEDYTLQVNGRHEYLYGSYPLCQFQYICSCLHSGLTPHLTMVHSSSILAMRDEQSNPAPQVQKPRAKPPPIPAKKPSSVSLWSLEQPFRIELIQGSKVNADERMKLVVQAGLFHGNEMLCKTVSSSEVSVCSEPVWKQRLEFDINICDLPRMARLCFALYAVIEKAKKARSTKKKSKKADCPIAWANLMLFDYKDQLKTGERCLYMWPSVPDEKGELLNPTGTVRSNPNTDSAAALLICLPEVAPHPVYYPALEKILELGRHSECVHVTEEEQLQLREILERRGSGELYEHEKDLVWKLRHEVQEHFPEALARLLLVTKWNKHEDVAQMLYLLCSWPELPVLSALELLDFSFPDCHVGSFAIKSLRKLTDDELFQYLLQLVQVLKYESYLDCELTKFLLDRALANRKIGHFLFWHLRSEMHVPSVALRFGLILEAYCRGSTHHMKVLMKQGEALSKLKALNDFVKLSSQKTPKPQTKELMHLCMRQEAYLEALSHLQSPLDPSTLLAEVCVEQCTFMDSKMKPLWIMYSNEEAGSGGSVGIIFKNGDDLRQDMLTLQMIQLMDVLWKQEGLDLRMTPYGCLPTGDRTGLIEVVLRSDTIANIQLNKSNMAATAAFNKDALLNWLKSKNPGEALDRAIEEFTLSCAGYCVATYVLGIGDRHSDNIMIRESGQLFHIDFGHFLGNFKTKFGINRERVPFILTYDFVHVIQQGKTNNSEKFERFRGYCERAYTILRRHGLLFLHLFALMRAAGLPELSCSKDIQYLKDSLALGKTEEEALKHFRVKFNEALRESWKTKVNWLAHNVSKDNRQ

Compound | target | test | system | conditions | endpoint | result
Oc1cc(O)c2c(c1)OC(c1ccc(O)c(O)c1)C(OC1(c3ccc(O)c(O)c3)Oc3cc(O)cc(O)c3C(O)C1O)C2 (stereo not drawn) | CHRM3 (Homo sapiens, UniProt P20309) | DMR desensitization | HT-29 | together with: acetylcholine | IC50 | 57 µM
CN(C)c1nc(NCc2cccc(-c3ccccc3)c2)c(/N=N/c2ccc(Cl)cc2)c(N(C)C)n1 | OfChi-h | enzyme activity, inhibitor, fluorescence | – | – | IC50 | 0.12 µM
O=C1CC(c2ccc(Br)cc2)N1S(=O)(=O)c1cccc(Cl)c1 (stereo not drawn) | glpG | enzyme activity, inhibitor | – | – | IC50 | ≥ 100 µM
N=C(N)SCc1ccccc1CSC(=N)N | CYP2C19 (Homo sapiens, UniProt P33261) | enzyme activity, inhibitor | – | – | IC50 | > 10 µM
Cc1cc(O)c2c(c1O)C(=O)c1cc(O)cc(O)c1C2=O | MAOB | enzyme activity, inhibitor | – | – | IC50 | ~9 µM and 9.69 µM
O=C(CCNC(=O)CNC(=O)CC(c1ccccc1)(c1ccccc1)c1ccccc1)NC[C@@H]1CCCN(Cc2ccc3cc(F)ccc3c2)C1 | CHRM5 (Homo sapiens, UniProt P08912) | ligand displacement, radioligand | – | cell membranes | IC50 | > 30 µM
COc1ccccc1C1CCN(c2nc(C3CC3)nc3ccc(N(C)CCO)cc23)CC1 | NTSR1 | G protein activation, antagonist, BRET | – | – | IC50 | 7.04 µM
O=C(Nc1ccc(OC(F)(F)F)cc1)N1CCC(Cc2cccc(Oc3ccc(C(F)(F)F)cn3)c2)CC1 | MGLL (Homo sapiens, UniProt Q99685) | enzyme activity, inhibitor, absorbance | – | – | IC50 | > 10 µM
CCN1/C(=C/C(C)=O)Sc2ccc(F)cc21 | Adra1a (Rattus norvegicus, UniProt P43140) | ligand displacement, radioligand | – | – | IC50 | > 30 µM
O=C(O)c1cc(-c2ccc(CN3CCCC(CO)C3)o2)ccc1Cl (stereo not drawn) | DNA dC->dU-editing enzyme APOBEC-3B (Homo sapiens, UniProt Q9UH17) | enzyme activity, inhibitor, HPLC | – | – | IC50 | 70.1 µM
COc1ccc(C(=O)CC2(O)C(=O)Nc3c(Br)cc(C)cc32)cc1 (stereo not drawn) | ppa | enzyme activity, inhibitor | – | – | IC50 | > 100 µM
CC(OC(=O)c1cc2c(s1)CCC2)C(=O)Nc1ccc2c(c1)OCCO2 (stereo not drawn) | Protein tyrosine phosphatase type IVA 3, with CNNM4 CBS domain (PTP4A3, Homo sapiens, UniProt O75365) | protein-protein interaction, inhibitor, HTRF | – | – | IC50 | 1.9 µM
CCOc1cc(CN2CCC3(CC2)CN(c2ccc(C(=O)O)cc2)C(=O)N3)c(C2CC2)cc1C | SSTR5 (Homo sapiens, UniProt P35346, W261A) | cAMP level, antagonist, GloSensor | AD293 | W261A mutant, bandwidth 6.48, together with: CST17 EC80 and forskolin | IC50 | 0.0339 µM
O=C(O)Cc1cc2c(cc1C(=O)c1cccc(I)c1)OCO2 | Gria1 | glutamate-evoked current, inhibitor, whole-cell patch clamp | HEK293T, homomeric receptor | – | IC50 | 4.75 µM
Cn1c(/C=C/c2cn(C)c3ccccc23)nc2ccccc2c1=O | Uncharacterized protein | enzyme activity, inhibitor, coupled colorimetric | – | together with: E. coli pyrophosphatase coupling | IC50 | 74 µM
COC(=O)C1=CNC=C(C(=O)OC)C1c1ccc(F)c(C(F)(F)F)c1 | CACNA1C (Homo sapiens, UniProt Q13936) | ion current, inhibitor, patch clamp | – | pH 7.4 | IC50 | 13.9 µM
Cc1cnc(Nc2ccc3c(c2)CCN(C(=O)/C=C/C(=O)c2ccc(Cl)cc2)C3)nc1-c1cnn(C(C)C)c1 | JAK1 | enzyme activity, inhibitor, ADP detection | – | – | IC50 | > 0.03 µM
CCN(CC)CC(=O)Nc1cccc(-n2cc(-c3ccc4ccc(-c5cn(-c6cccc(NC(=O)CN(CC)CC)c6)nn5)cc4c3)nn2)c1 | JAK1 | enzyme activity, inhibitor | – | – | IC50 | > 10 µM
CC(C)(C)NC(=O)CC(NC(=O)CCc1ccccc1)C(=O)NCCNC(=O)c1cccc2ccccc12 (stereo not drawn) | Proteasome component C5/PSMB5 | enzyme activity, inhibitor | – | constitutive proteasome β5c | IC50 | 1.22 µM
N[C@@H](Cc1c[nH]c2ccc(OCc3cccc(-c4ccccc4)c3)cc12)C(=O)O | SLC7A5 (Homo sapiens, UniProt Q01650) | transporter uptake, inhibitor, radiometric | – | – | IC50 | 23.9 µM
COc1cc([N+](=O)[O-])ccc1CC=NOCc1ccc2nc(-c3ccccc3)c(Nc3ccc(C(=O)O)cc3)n2c1 (mixture of isomers) | TDP1 | enzyme activity, inhibitor | – | 100 µM, unpurified compound | inhibition | -2.6%
Nc1ccc2c(NC3CCCCC3)nc(Nc3ccc(F)c(F)c3)nc2c1 | ADRB2 | β-arrestin recruitment, antagonist | – | – | IC50 | 4.4 µM
COC(=O)Cc1cc2c(cc1C(=O)c1ccccc1I)OCO2 | Gria1 | glutamate-evoked current, inhibitor, whole-cell patch clamp | HEK293T, homomeric receptor | – | IC50 | 6.03 µM

Compound | target | test | system | conditions | endpoint | result
Clc1ccc(Nc2nc(NC3CCCCC3)c3ccccc3n2)cc1 | ADRB2 | β-arrestin recruitment, antagonist | – | – | IC50 | 0.8 µM
CN(C)c1nc(NCc2ccc(F)c(C(F)(F)F)c2)c(/N=N/c2ccc(Cl)cc2)c(N(C)C)n1 | OfChi-h | enzyme activity, inhibitor, fluorescence | – | – | IC50 | 0.37 µM
Cc1ccc2c(c1Br)C(O)(CC(=O)c1ccc(C3CCCCC3)cc1)C(=O)N2 (stereo not drawn) | ppa | enzyme activity, inhibitor | – | – | IC50 | > 100 µM
COc1cc2c(cc1NS(=O)(=O)c1ccc(Br)cc1C)n(C)c(=O)n2C | Bromodomain-containing protein 1, bromodomain (BRD1, Homo sapiens, UniProt O95696) | inhibitor | – | – | IC50 | 0.892 µM
CCCN(C)c1ccc2nc(C3CC3)nc(N3CCC(c4ccccc4OC)CC3)c2c1 | NTSR1 | G protein activation, antagonist | – | – | IC50 | 0.554 µM
CC(C)(C)n1ncc2c(=O)n(Cc3cccc(F)c3)c(NCc3ccc(F)cn3)nc21 | PDE4D (Homo sapiens, UniProt Q08499) | enzyme activity, inhibitor | – | – | IC50 | 0.325 µM
CCc1cc(NC)ncc1C(N)=O | NNMT | enzyme activity, inhibitor | – | – | IC50 | 0.794 µM
CCNC(=O)/C=C/C(=O)N(CC(C)C)NC(=O)[C@H](CC(C)C)NC(=O)[C@H](CC(C)C)NC(=O)OCc1ccccc1 | Proteasome component C5/PSMB5 | chymotrypsin-like activity, inhibitor | human 20S proteasome | together with: Suc-LLVY-AMC 100 µM | IC50 | 5.5 ± 1.2 µM
O=C1Nc2ccccc2/C1=N/c1ccc(Cl)cc1Br | PIK3CD | enzyme activity, inhibitor, ADP detection | – | – | IC50 | 0.0618 µM
Clc1cccc(CNc2nc(NC3CCCCC3)c3ccccc3n2)c1 | ADRB2 | β-arrestin recruitment, antagonist | – | – | IC50 | 21 µM
CC1C(=O)N(S(=O)(=O)c2ccccc2)C1c1ccccc1 (stereo not drawn) | glpG | enzyme activity, inhibitor | – | – | IC50 | 1 µM
COc1ccnc(C)c1C | NNMT | enzyme activity, inhibitor | – | – | IC50 | 7.94 µM
CC(C)(C)OC(=O)C[N+](C)(C)CCCN1c2ccccc2CCc2ccc(Cl)cc21 | Uncharacterized protein | enzyme activity, inhibitor, coupled colorimetric | – | together with: E. coli pyrophosphatase coupling | IC50 | 50.6 µM
Fc1ccc(Nc2nc(NC3CCCCC3)c3ccccc3n2)cc1 | ADRB2 | cAMP production, antagonist, GloSensor | – | together with: isoproterenol 1 µM | IC50 | > 50 µM
CC[C@H]1CN(C(=O)NCC(F)(F)F)C[C@H]1Nc1c(C(F)(F)F)cnc2[nH]ccc12 | JAK1 | enzyme activity, inhibitor, ADP detection | – | – | IC50 | 0.718 µM
Cc1nn(C)c(Oc2cccc(C(F)(F)F)c2)c1C=NOCc1ccc2nc(-c3ccccc3)c(Nc3ccc(C(=O)O)cc3)n2c1 (mixture of isomers) | TDP1 | enzyme activity, inhibitor | – | 100 µM, unpurified compound | inhibition | -1.5%
CCc1ccc(/N=C2\C(=O)N(Cc3ccc([N+](=O)[O-])cc3)c3ccccc32)cc1 | PIK3CD | enzyme activity, inhibitor, ADP detection | – | – | IC50 | 0.0596 µM
CC(C)c1ccc(/C=C/C(=O)c2ccc(Br)cc2)cc1 | MAOB | enzyme activity, inhibitor | – | – | IC50 | 0.114 µM
COc1cc(NC(=O)N2CCSc3ccccc32)cc(OC)c1 | ppa | inhibitor, counter-screen, coupling enzyme alone | – | – | IC50 | > 30 µM
CNc1cc(CF)c(C(N)=O)cn1 | NNMT | enzyme activity in cells, inhibitor | – | – | IC50 | 0.316 µM
CC(=O)C1=C(c2ccc(F)cc2)N(C(C)=O)n2cnnc2S1 | Uncharacterized protein | enzyme activity, inhibitor, coupled colorimetric | – | together with: E. coli pyrophosphatase coupling | IC50 | 41.4 µM
O=c1cc(-c2ccc(O)cc2)oc2c([C@@H]3OC[C@H](O)[C@H](O)[C@H]3O)c(O)c([C@@H]3O[C@H](CO)[C@@H](O)[C@H](O)[C@H]3O)c(O)c12 | CAMK2D (Homo sapiens, UniProt Q13557) | binding, LanthaScreen Eu binding | – | 3 h | IC50 | 0.93 µM
